Results gathered from unrelated publications.
Protocols differ between the studies behind these lines. Numbers after ± are the reported error.

Sequences of proteins named here, by UniProt entry; tags and fusion partners are left off.
UniProt P54764, whole entry, looked up: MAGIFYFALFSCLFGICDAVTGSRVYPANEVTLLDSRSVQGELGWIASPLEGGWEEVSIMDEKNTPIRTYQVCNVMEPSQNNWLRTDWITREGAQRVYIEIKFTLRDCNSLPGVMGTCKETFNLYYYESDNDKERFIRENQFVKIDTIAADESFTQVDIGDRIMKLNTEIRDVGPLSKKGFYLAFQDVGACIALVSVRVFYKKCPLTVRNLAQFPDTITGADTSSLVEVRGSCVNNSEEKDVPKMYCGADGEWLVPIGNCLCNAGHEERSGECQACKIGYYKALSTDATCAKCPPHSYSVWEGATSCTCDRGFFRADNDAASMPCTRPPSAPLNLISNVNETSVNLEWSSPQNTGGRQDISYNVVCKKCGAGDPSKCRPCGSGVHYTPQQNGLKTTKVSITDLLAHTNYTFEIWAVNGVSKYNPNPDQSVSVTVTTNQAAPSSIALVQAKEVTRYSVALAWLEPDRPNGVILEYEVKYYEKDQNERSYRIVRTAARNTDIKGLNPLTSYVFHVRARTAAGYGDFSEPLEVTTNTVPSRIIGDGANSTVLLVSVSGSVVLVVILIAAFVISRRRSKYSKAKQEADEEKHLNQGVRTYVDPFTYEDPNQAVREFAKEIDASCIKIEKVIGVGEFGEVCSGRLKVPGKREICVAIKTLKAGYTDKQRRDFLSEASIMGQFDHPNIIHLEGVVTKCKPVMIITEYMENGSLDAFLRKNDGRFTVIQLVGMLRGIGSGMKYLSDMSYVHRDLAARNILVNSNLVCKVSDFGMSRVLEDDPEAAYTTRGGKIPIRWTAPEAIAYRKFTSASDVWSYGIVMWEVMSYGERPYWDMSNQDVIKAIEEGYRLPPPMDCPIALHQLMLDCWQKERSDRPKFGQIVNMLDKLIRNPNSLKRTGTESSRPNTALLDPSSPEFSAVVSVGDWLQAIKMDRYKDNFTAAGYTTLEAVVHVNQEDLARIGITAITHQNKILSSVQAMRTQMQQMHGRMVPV
UniProt Q9UM73, whole entry F1174L, looked up: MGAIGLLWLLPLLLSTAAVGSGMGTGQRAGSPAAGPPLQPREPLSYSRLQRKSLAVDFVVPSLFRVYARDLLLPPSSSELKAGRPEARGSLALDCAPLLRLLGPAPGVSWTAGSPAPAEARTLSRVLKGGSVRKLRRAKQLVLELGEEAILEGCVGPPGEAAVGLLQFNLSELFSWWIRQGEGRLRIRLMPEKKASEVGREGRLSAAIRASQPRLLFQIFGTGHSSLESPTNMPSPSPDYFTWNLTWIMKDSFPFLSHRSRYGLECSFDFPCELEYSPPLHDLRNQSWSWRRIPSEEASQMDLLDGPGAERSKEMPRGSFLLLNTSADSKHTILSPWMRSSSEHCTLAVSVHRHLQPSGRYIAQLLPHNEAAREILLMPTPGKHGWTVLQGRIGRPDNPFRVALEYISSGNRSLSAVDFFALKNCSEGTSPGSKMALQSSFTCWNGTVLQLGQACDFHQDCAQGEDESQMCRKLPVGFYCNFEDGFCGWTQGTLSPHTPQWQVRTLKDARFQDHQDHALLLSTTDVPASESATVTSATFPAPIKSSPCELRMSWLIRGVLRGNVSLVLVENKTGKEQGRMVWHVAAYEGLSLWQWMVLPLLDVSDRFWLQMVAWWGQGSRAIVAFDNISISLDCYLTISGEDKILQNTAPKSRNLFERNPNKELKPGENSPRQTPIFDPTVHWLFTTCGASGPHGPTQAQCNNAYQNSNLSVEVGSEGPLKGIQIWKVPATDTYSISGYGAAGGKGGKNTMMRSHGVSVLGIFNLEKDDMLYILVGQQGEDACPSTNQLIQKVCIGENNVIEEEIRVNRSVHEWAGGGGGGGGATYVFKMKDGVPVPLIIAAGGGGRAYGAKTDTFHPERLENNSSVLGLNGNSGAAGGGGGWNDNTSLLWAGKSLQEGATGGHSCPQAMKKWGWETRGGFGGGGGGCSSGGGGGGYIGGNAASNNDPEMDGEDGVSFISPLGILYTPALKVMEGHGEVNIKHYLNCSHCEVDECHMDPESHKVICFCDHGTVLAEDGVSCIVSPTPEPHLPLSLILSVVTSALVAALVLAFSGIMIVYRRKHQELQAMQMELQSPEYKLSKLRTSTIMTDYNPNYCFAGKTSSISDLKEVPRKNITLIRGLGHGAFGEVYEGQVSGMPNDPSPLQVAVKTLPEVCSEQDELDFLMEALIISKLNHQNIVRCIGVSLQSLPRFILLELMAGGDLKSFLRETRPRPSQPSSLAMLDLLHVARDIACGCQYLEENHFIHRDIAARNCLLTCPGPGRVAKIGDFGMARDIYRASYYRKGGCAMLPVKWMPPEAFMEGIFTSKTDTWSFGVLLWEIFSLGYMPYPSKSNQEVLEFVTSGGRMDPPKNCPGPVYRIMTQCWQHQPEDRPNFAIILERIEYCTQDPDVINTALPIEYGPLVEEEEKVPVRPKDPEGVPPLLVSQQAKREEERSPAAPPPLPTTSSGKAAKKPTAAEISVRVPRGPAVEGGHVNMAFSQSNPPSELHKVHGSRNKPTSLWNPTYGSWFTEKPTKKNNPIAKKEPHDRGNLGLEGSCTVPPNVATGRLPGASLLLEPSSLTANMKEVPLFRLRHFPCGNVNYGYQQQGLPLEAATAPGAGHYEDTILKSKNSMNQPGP

Substance | tested on | assay | test system | conditions | scale | endpoint | result
CC#C/C(=N\OC[C@H]1COCCN1)c1ccc2ncnc(Nc3ccc(OCc4cccc(F)c4)c(Cl)c3)c2c1 | Ephrin type-A receptor 4 (EPHA4, Homo sapiens, UniProt P54764) | kinase activity |  | 10 µM |  | inhibition | 16.9%
CCCCCc1cc(O)c2c(c1)OC(C)(C)[C@@H]1CCC(C)=C[C@@H]21 |  | drug discrimination | mouse C57BL/6 | intraperitoneal, 3 mg/kg, trained with 5.6 mg/kg compound | reference: vehicle | drug-lever responding | increased
CN1CC[C@]23c4c5ccc(O)c4O[C@H]2[C@@H](O)C=C[C@H]3[C@H]1C5 |  | cAMP inhibition, GloSensor |  | unit not given | reference: MOR over KOR | ΔΔlog(Emax/EC50) | 2.33
N#Cc1c(-c2ccc(-c3no[n+]([O-])c3C#N)s2)no[n+]1[O-] |  | chemiluminescence | solution | added: cysteine |  | NO release | 1.19 mol/mol
CN(C(=O)Cc1ccc(Cl)c(Cl)c1)[C@@H]1CCCC[C@H]1N1CCCC1 |  |  | C57BL/6 mouse, male, serum | intraperitoneal, 10 mg/kg, 30 min |  | serum prolactin | increased
CC[C@H](C)[C@@H]1NC(=O)[C@H](CCC(=O)O)NC(=O)[C@@H]2CCCN2C(=O)[C@H](Cc2c[nH]cn2)NC(=O)[C@H](CC(=O)O)NC(=O)[C@H](Cc2ccc(O)cc2)NC(=O)[C@H](CC(N)=O)NC(=O)[C@@H]2CSSC[C@@H]3NC(=O)CNC(=O)CNC(=O)CNC(=O)[C@H](C)NC(=O)[C@H](C)NC(=O)CNC(=O)CNC(=O)[C@H](CSSC[C@H](NC3=O)C(=O)N[C@@H](CO)C(=O)N[C@@H](CC(=O)O)C(=O)N3CCC[C@H]3C(=O)N[C@@H](CCCNC(=N)N)C(=O)N2)NC1=O |  | barium current, inhibitor, electrophysiology |  | 0.2 µM, Cav2.3d Y1765F mutant |  | inhibition | 11.3 ± 3%
CO[C@]12CC[C@@]3(C[C@@H]1[C@](C)(O)C(C)(C)C)[C@H]1Cc4ccc(O)c5c4[C@@]3(CCN1CC1CC1)[C@H]2O5 |  | tail-flick antinociception, agonist | mice |  |  | ED50 | 0.14 mg/kg
CCN1CCN(Cc2ccc(NC(=O)c3ccc(C)c(/C=C/c4cnc5[nH]ccc5c4OC)c3)cc2C(F)(F)F)CC1 | ALK tyrosine kinase receptor (ALK, Homo sapiens, UniProt Q9UM73, F1174L) | inhibitor, cell-based kinome screen |  | 5 µM | reference: no inhibitor | log2 fold change | 0.217
C[C@@H](Cc1cccc2ccccc12)NC[C@H](O)c1cc(O)cc(O)c1 |  | contractility | ventricular cardiomyocytes, rat |  |  | EC50 | 0.103 ± 0.034 µM
CO[C@]12CC[C@@]3(C[C@@H]1[C@@](C)(O)C(C)(C)C)[C@H]1Cc4c(Cl)cc(O)c5c4[C@@]3(CCN1CC1CC1)[C@H]2O5 |  | tail-flick test | mice | 30 mg/kg |  | peak antinociception | 15%
CCC(C)C(CC)C(N)=O (stereo not drawn) |  | subcutaneous metrazol seizure test | rat | oral |  | ED50 | 54 mg/kg
Pillar[6]MaxQ |  | host, isothermal titration calorimetry | sodium phosphate buffer | pH 7.4, added: methamphetamine |  | Kd | 0.101 µM

For quick reference, copied from above:
Substance | tested on | assay | test system | conditions | scale | endpoint | result
C[C@@H](Cc1cccc2ccccc12)NC[C@H](O)c1cc(O)cc(O)c1 |  | contractility | ventricular cardiomyocytes, rat |  |  | EC50 | 0.103 ± 0.034 µM
